Published values pooled from the literature.

| SMILES | assay | test system | conditions | stability |
| --- | --- | --- | --- | --- |
| CCCCCC(=O)Cc1c[nH]c2nc3c(ncn3C3CC(O)C(CO)O3)c(=O)n12 (stereo not shown) | – | rat liver cytosol | – | stable |
| NC(=O)C(c1ccccc1)(c1ccc(F)cc1)c1ccc(OCC[18F])cc1 (stereo not shown) | – | human serum | concentration not given, 120 min, 37 °C | stable |
| COc1ccnc(C[S+]([O-])c2nc3cc(-n4cccc4)ccc3[nH]2)c1C (stereo not shown) | – | rat plasma | – | stable |
| COC(=O)/C=C/C(=O)c1ccc(OC)cc1 | – | rat plasma | 12 h, room temperature | stable |
| CC(C)C[C@@H]1NC(=O)[C@H]([C@@H](C)O)NC(=O)[C@H](Cc2ccccc2)NC(=O)CNC(=O)[C@H](Cc2c[nH]c3ccccc23)NC(=O)[C@H](Cc2c[nH]cn2)NC(=O)[C@H](C)NC(=O)[C@@H](N)CCCCNC(=O)C[C@@H](C(N)=O)NC1=O | HPLC | DMEM/F-12 with 10% FBS | 3 h, 25 °C | stable |
| C[C@H]1C[C@@H](Oc2cccc(F)n2)CCN1Cc1cnc(N[11C](C)=O)s1 | – | human plasma | 0.5 h, room temperature | 100% |
| O=C(NC1CCCCC1)C(c1cccnc1)N(C(=O)CCl)c1ccc(F)cc1 (racemic) | – | DPBS | 24 h, 37 °C | stable |
| CC(C)Cc1ccc(C(C)C(=O)[O][Pt]([NH2])([NH2])([Cl])([Cl])[O]C(=O)C(Cl)Cl)cc1 (stereo not shown) | HPLC | phosphate buffer | days, pH 7, 37 °C | stable |
| CSCOC1C(=O)C2(C)C(OCSC)CC3OCC3(OC(C)=O)C2C(OC(=O)c2ccccc2)C2(O)CC(OC(=O)C(O)C(C=C(C)C)NC(=O)OC(C)(C)C)C(C)=C1C2(C)C (stereo not shown) | HPLC-MS/MS | rat liver homogenate | storage and freeze-thaw | stable |
| CC(=O)/C(C#N)=C/c1cccc(C(N)=O)c1 | – | – | buffer with DTT | stable |
| C=C(C)C(=O)Nc1ccc(-c2c(-c3ccc(Oc4cccc(C)n4)cc3)c3c(N)ncnc3n2C)cc1 | – | plasma and blood | across species | stable |
| CC[C@H](C)[C@H](NC(=O)[C@H](CCC(=O)O)NC(=O)[C@H](CC(C)C)NC(=O)[C@H](CC(=O)O)NC(=O)[C@H](CC(=O)O)NC(=O)[C@@H]1CCCN1C(=O)[C@H](CCCNC(=N)N)NC(=O)[C@@H]1CCCN1C(=O)[C@@H](N)CCCNC(=N)N)C(=O)O | – | PBS | 7 d | stable |
| C#Cc1cccc(N(C(=O)CCl)C(C(=O)NC2CCCCC2)c2ccccn2)c1 (racemic) | HPLC-MS | DPBS | 24 h, 37 °C | unstable |

A few entries again:
| SMILES | assay | test system | conditions | stability |
| --- | --- | --- | --- | --- |
| CC[C@H](C)[C@H](NC(=O)[C@H](CCC(=O)O)NC(=O)[C@H](CC(C)C)NC(=O)[C@H](CC(=O)O)NC(=O)[C@H](CC(=O)O)NC(=O)[C@@H]1CCCN1C(=O)[C@H](CCCNC(=N)N)NC(=O)[C@@H]1CCCN1C(=O)[C@@H](N)CCCNC(=N)N)C(=O)O | – | PBS | 7 d | stable |
| C#Cc1cccc(N(C(=O)CCl)C(C(=O)NC2CCCCC2)c2ccccn2)c1 (racemic) | HPLC-MS | DPBS | 24 h, 37 °C | unstable |
